Measured values gathered from unrelated publications.
Compare with care: the assays were run in different laboratories.
Method: steady-state kinetics
B1: UGT1A9 (Homo sapiens, UniProt O60656); chain GKLLVVPMDGSHWFTMRSVVEKLILRGHEVVVVMPEVSWQLGRSLNCTVKTYSTSYTLEDLDREFKAFAHAQWKAQVRSIYSLLMGSYNDIFDLFFSNCRSLFKDKKLVEYLKESSFDAVFLDPFDNCGLIVAKYFSLPSVVFARGILCHYLEEGAQCPAPLSYVPRILLGFSDAMTFKERVRNHIMHLEEHLLCHRFFKNALEIASEILQTPVTEYDLYSHTSIWLLRTDFVLDYPKPVMPNMIFIGGINCHQGKPLPMEFEAYINASGEHGIVVFSLGSMVSEIPEKKAMAIADALGKIPQTVLWRYTGTRPSNLANNTILVKWLPQNDLLGHPMTRAFITHAGSHGVYESICNGVPMVMMPLFGDQMDNAKRMETKGAGVTLNVLEMTSEDLENALKAVINDKSYKENIMRLSSLHKDRPVEPLDLAVFWVEFVMRHKGAPHLRPAAHDLTWYQYHSLDVIGFLLAVVLTVAFITFKCCAYGYRKCLGKKGRVKKAHKSKTH
B2: AtTPS18 G328P (Arabidopsis thaliana, UniProt Q9LUE2); chain STKSSDDLEGSRPSTYFSPSLWGDHFLSVSLDRGEFDELEREIETMKPLVKDMLMSSQSSDKEKIRLIHLLVSLGSSYHFDKEIQDILKHSFTKLDDIIVGEDDLETISIMFEVFRLYGHKMSCDAFDRFRGEDGRFKESLAKDVRGMLQLFEVAHLGTPSEDIMDEASSFAQNHLDSWIGGNVSGATPHLLKHIQNSLYIPRYCNIEVLVAREYISYYEQEEGHNKILLKFAKLNFNFCQFHYIQELKTLTKWWKDLDLASKLPYIRDRLVESHLPGLGPYFEPHYSLGRIIVAKIIMTMVVVDDTYDAHATVPEVAVLTECLQRLNIGADDKLPDYLRTVLESVFEVMGEIEQEMRPKGRSYGVKQVLERFKNVAKADKQLTEWARTGDVPSFDEYMKVGLVTAGMDGYAGYCFIGMEDVSEKEAFEWLSSNPLIIQALNVMFRLANDVGTYETEINRGEVANGLNCYMKQYGVTKEEASQELRKIYSNNKKVVMEEFMNSHDHVPRQVLLRCLNFARLFDVMYTEGDGYSEPKGKIEHFMTSLYVHPIPLS
B3: BaiA1 (Clostridium scindens, UniProt P07914); chain MKLVQDKITIITGGTRGIGFAAAKLFIENGAKVSIFGETQEEVDTALAQLKELYPEEEVLGFAPDLTSRDAVMAAVGTVAQKYGRLDVMINNAGITMNSVFSRVSEEDFKNIMDINVNGVFNGAWSAYQCMKDAKQGVIINTASVTGIYGSLSGIGYPTSKAGVIGLTHGLGREIIRKNIRVVGVAPGVVDTDMTKGLPPEILEDYLKTLPMKRMLKPEEIANVYLFLASDLASGITATTISVDGAYRP
B4: LigI (Sphingobium sp. SYK-6, UniProt O87170); chain TNDERILSWNETPSKPRYTPPPGAIDAHCHVFGPMAQFPFSPKAKYLPRDAGPDMLFALRDHLGFARNVIVQASCHGTDNAATLDAIARAQGKARGIAVVDPAIDEAELAALHEGGMRGIRFNFLKRLVDDAPKDKFLEVAGRLPAGWHVVIYFEADILEELRPFMDAIPVPIVIDHMGRPDVRQGPDGADMKAFRRLLDSREDIWFKATCPDRLDPAGPPWDDFARSVAPLVADYADRVIWGTDWPHPNMQDAIPDDGLVVDMIPRIAPTPELQHKMLVTNPMRLYWSEEM
B5: protein (Streptomyces coelicolor, UniProt P16544); chain MATQDSEVALVTGATSGIGLEIARRLGKEGLRVFVCARGEEGLRTTLKELREAGVEADGRTCDVRSVPEIEALVAAVVERYGPVDVLVNNAGRPGGGATAELADELWLDVVETNLTGVFRVTKQVLKAGGMLERGTGRIVNIASTGGKQGVVHAAPYSASKHGVVGFTKALGLELARTGITVNAVCPGFVETPMAASVREHYSDIWEVSTEEAFDRITARVPIGRYVQPSEVAEMVAYLIGPGAAAVTAQALNVCGGLGNY
B6: Ma-WS/DGAT A144F (Marinobacter nauticus); chain MTPLNPTDQLFLWLEKRQQPMHVGGLQLFSFPEGAPDDYVAQLADQLRQKTEVTAPFNQRLSYRLGQPVWVEDEHLDLEHHFRFEALPTPGRIRELLSFVSAEHSHLMDRERPMWEVHLIEGLKDRQFALYTKVHHSLVDGVSFMRMATRMLSENPDEHGMPPIWDLPCLSRDRGESDGHSLWRSVTHLLGLSGRQLGTIPTVAKELLKTINQARKDPAYDSIFHAPRCMLNQKITGSRRFAAQSWCLKRIRAVCEAYGTTVNDVVTAMCAAALRTYLMNQDALPEKPLVAFVPVSLRRDDSSGGNQVGVILASLHTDVQEAGERLLKIHHGMEEAKQRYRHMSPEEIVNYTALTLAPAAFHLLTGLAPKWQTFNVVISNVPGPSRPLYWNGAKLEGMYPVSIDMDRLALNMTLTSYNDQVEFGLIGCRRTLPSLQRMLDYLEQGLAELELNAGL
B7: enzyme (Vitis vinifera, UniProt F6HSW4); chain MAVDSGLSSPLGPPACEKDAKALQFIEEMTRNPDQVQEKILAEILSQNGETEYLQRFKLAGATDRDTFKSKVPVVTYEDLQPDIQRIANGDRSPILSSHPISEFLTSSGTSAGERKLMPTIHEEWDRRQKLYSLLMPVMNLYVPGLDKGKGLYFLFVKSETKTPSGLVARPVLTGYYRSEHFKKRPYDPYNVYTSPDEAILCVDSFQSMYAQMLCGLLMHKEVLRVGAVFASGLLRAIRFLQVHWQQLAHDISTGILNPKITDPSVREGLAGILKPSQELADFIIQECSGGNWERIITRIWPNTKYLDVIVTGAMAQYIPTLDYFSGGIPLACTMYASSECYFGLNLKPMSKPSEVSYTIMPNMGYFEFLPHDPSAPPLSRDSPPRLVDLADVEVGKEYELVITTYAGLCRYRVGDILQVTGFHNSAPQFQFIRRKNVLLSIDSDKTDEAELQKAVENASLLLREFNTSVVEYTSFADTKTIPGHYVIYWELLVKDPSNSPTDTVLKQCCLAMEESLNTVYRQGRVADNSIGPLEIRVVKSGTFEELMDYAISRGASINQYKVPRCVNFTPIMELLDSRVLSTYFSPAAPHWTPERRRTD
B8: ST3GAL4 (Homo sapiens, UniProt Q11206); chain REDRYIELFYFPIPEKKEPCLQGEAESKASKLFGNYSRDQPIFLRLEDYFWVKTPSAYELPYGTKGSEDLLLRVLAITSSSIPKNIQSLRCRRCVVVGNGHRLRNSSLGDAINKYDVVIRLNNAPVAGYEGDVGSKTTMRLFYPESAHFDPKVENNPDTLLVLVAFKAMDFHWIETILSDKKRVRKGFWKQPPLIWDVNPKQIRILNPFFMEIAADKLLSLPMQQPRKIKQKPTTGLLAITLALHLCDLVHIAGFGYPDAYNKKQTIHYYEQITLKSMAGSGHNVSQEALAIKRMLEMGAIKNLTSF
B9: PhnY E385A (Sinorhizobium meliloti, UniProt Q92UV7); chain MTNAEVTIAVRHEPMRIAGRLVDTDDRVEVRYPWNDTVVGTVPAGRAEHAREAFAIAAAYQPKLTRYERQKILLATAEALAARKEEISDVITLELGISKADSLYEVGRAFDVFTLAGQMCIRDDGEIFSCDLTPHGKARKIFTMREPLTAISAITPFNHPLNMVAHKVAPAIATNNCVVVKPTELTPMTALLLADILYEAGLPPEMLSVVTGWPADIGMEMITNPHVDLVTFTGSVPVGKLIAANAHYKRQVLELGGNDPLIILNDLSDDDLARAADLAVAGATKNSGQRCTAVKRILCQESVADRFVPLVLERAKRLRFGDPMDRSTDLGTVIHEKAAALFEERVMRAAEEGADILYHPGRSGALLPPIVVDRVPHQSDLVLEATFGPIIPIVRVPDDDDATITLSNSTAFGLSSGVCTNDYRRMQKYIAGLKVGTVNIWEVPGYRIEMSPFGGIKDSGNGYKEGVIEAMKSFTNVKTFSLPWP
UniProt P60560, sequence (whole entry, looked up): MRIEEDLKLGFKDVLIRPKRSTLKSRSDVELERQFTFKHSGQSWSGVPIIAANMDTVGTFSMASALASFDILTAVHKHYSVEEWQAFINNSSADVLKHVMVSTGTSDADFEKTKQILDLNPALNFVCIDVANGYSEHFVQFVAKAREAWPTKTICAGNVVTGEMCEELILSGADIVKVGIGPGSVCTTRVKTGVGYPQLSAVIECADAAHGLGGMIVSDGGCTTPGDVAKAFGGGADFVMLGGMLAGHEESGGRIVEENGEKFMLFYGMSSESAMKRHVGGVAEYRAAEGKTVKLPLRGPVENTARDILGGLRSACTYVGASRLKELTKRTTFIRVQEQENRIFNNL

`B1 (UGT1A9)` gave a Km of 0.4 µM (O=c1cc(-c2ccccc2O)oc2ccccc12; pH 7.4, 37 °C).
With `guaC (Escherichia coli, UniProt P60560)` the Km was 3.2 µM (Nc1nc2c(ncn2[C@@H]2O[C@H](COP(=O)(O)O)[C@@H](O)[C@H]2O)c(=O)[nH]1).
With `pgmB T16P (Lactococcus lactis) (sequence not shown)` the Km was 10 µM (O=P(O)(O)OC[C@H]1O[C@@H](OP(=O)(O)O)[C@H](O)[C@@H](O)[C@@H]1O; pH 7, 25 °C).
`B2 (AtTPS18 G328P)` has a Km of 1.28 µM (CC(C)=CCC/C(C)=C/CC/C(C)=C/CC/C(C)=C/CC/C(C)=C/COP(=O)(O)OP(=O)(O)O; pH 7.5, 30 °C, product C5 measured, added: Mg2+ 10 mM).
With `B3 (BaiA1)` the Km was 883 µM (NC(=O)c1ccc[n+]([C@@H]2O[C@H](COP(=O)(O)OP(=O)(O)OC[C@H]3O[C@@H](n4cnc5c(N)ncnc54)[C@H](OP(=O)(O)O)[C@@H]3O)[C@@H](O)[C@H]2O)c1; pH 8.7, 37 °C, cofactor varied, added: glycocholic acid 1.4 mM).
`B4 (LigI)` gave a Km of 18 µM (O=C(O)/C=C(\CC(=O)C(=O)O)C(=O)O; pH 8.25, 30 °C, reverse reaction, tautomer mixture).
`enzyme (Mortierella alpina, UniProt U5Y3C6)` has a Km of 5.4 µM (CCCCCCCC/C=C\CCCCCCCC(=O)SCCNC(=O)CCNC(=O)[C@H](O)C(C)(C)COP(=O)(O)OP(=O)(O)OC[C@H]1O[C@@H](n2cnc3c(N)ncnc32)[C@H](O)[C@@H]1OP(=O)(O)O; pH 7.5, 28 °C).
For `B5 (protein)`, the Km was 6470 µM (O[C@@H]1CCCc2ccccc21; pH 7.4, phosphate 400 mM, NADPH 250 µM printed, added: NADP+, reverse reaction).
`B6 (Ma-WS/DGAT A144F)` gave a Km of 166 µM (CCCCCC(=O)SCCNC(=O)CCNC(=O)[C@H](O)C(C)(C)COP(=O)(O)OP(=O)(O)OC[C@H]1O[C@@H](n2cnc3c(N)ncnc32)[C@H](O)[C@@H]1OP(=O)(O)O; pH 7.5, 25 °C, NaCl 300 mM, apparent, added: 1-hexanol 4 mM).
For `B7 (enzyme)`, the Km was 554 µM (O=C(O)Cc1cccc2ccccc12; pH 8.6, 25 °C).
`B8 (ST3GAL4)` has a Km of 650 µM (CC(=O)N[C@H]1[C@H](O[C@H]2[C@@H](O)[C@@H](CO)O[C@@H](O[C@H]3[C@H](O)[C@@H](O)[C@H](Oc4ccc([N+](=O)[O-])cc4)O[C@@H]3CO)[C@@H]2O)O[C@H](CO)[C@@H](O)[C@@H]1O[C@@H]1O[C@H](CO)[C@H](O)[C@H](O)[C@H]1O; pH 6, added: CMP-Neu5Ac 0.5 mM).
The Km of `LovD A86V/C40A/C60N (Aspergillus terreus)` is reported as 660 µM (CCC(C)(C)C(=O)SCCC(=O)OC; 25 °C, 10% DMSO, added: 2 mM MJA).
For `B9 (PhnY E385A)`, the Km was 19 µM (O=CCP(=O)(O)O; pH 7.5, 30 °C, substrate inhibition, added: NAD+).

A few entries again:
For `B5 (protein)`, the Km was 6470 µM (O[C@@H]1CCCc2ccccc21; pH 7.4, phosphate 400 mM, NADPH 250 µM printed, added: NADP+, reverse reaction).
With `guaC (Escherichia coli, UniProt P60560)` the Km was 3.2 µM (Nc1nc2c(ncn2[C@@H]2O[C@H](COP(=O)(O)O)[C@@H](O)[C@H]2O)c(=O)[nH]1).
